Published values pooled from the literature.
Every numbered part comes from another study and shows a few of its results, in no order.

Block 1
Target: Histone acetyltransferase KAT6A, both winged helices, GST fusion (KAT6A, Homo sapiens, UniProt Q92794, residues 1-181)
Method: protein binding microarray
Form: double-stranded DNA, one strand shown
Medium: in vitro
Concentration: not given
Notes: 8-mer, flanks averaged, mean of 2 arrays, mostly near background
Reference: not given
Reading: higher = stronger binding
Measurement: E-score
Target sequence (chain): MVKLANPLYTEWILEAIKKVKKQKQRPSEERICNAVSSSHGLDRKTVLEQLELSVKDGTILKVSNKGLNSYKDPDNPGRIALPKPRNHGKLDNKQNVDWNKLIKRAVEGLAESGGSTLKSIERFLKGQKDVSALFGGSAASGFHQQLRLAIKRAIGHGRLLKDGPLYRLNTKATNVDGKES
GTAACTGA: -0.0197
ACAGGAAT: -0.196
GCTCGTCA: 0.0557
GCAGTCCA: -0.0751
AATTGACG: -0.00011
CGCCGATA: 0.306
CCTTCACG: 0.13
GAAGGTGC: -0.048
AGTGTCAT: -0.0651
ATAGTGTA: -0.185
AGCCTCAC: -0.25
ACCCGAAT: 0.108
AGAAGGCG: -0.087
CTCTTTCA: -0.144
AGCGGGCA: 0.179
AGGAGACG: 0.0497
TCCGACGA: 0.0678

Block 2
Target: Interferon regulatory factor 5, full length, phosphomimetic (IRF5, Homo sapiens, UniProt Q13568-2, residues 1-514, S451D/S453D/S456D/S462D)
Method: protein-binding microarray
Form: double-stranded DNA, one strand shown
Medium: in vitro
Concentration: 940 nM top
Notes: 60-bp whole probe
Added: salmon DNA 0.4 mg/ml
Reference: random background probes
Reading: higher = stronger binding
Measurement: fitted relative affinity
Shared flanks, not repeated: GCCTAGCAC … GTCTTGATTCGCTTGACGCTGCTG
GACGGACTGATTATCCTGACGTGCTAG: -0.563 z-score
TCAAGCCTCCATTTTTAACTGTGCTAG: -0.136 z-score
GACGGACTGGGAGTGGGGACGTGCTAG: -0.457 z-score
TCAGTTTTCTGGTTCCCACTGTGCTAG: 1.17 z-score
GACGATATCAGACTGGATACGTGCTAG: -0.325 z-score
TCAAGAAAGTGAAATACCACTGTGCTA: -0.494 z-score
TTAGATTCCAGTTTCGATGAGTGCTAG: 7.14 z-score
TTAAGACTGGGGACTGGGTTAGTGCTA: -0.17 z-score
TTAGATATCGGGCCTGGATTAGTGCTA: -0.212 z-score
TCAATTTTTTTTCACTAACTGTGCTAG: 1.38 z-score
TTAGAACTGAGTTCCGATTAGTGCTAG: 0.329 z-score
GACAGACTGCTTATCCTGACGTGCTAG: -0.62 z-score
TAAGATTTCAGTCTCGATTAGTGCTAG: 4.28 z-score
GATGGTCTCGGTATCGGGACGTGCTAG: 5.41 z-score
TCATCTTTCCAACTCTGACTGTGCTAG: 0.951 z-score
TTAGATTTAAGTTTCGATTAGTGCTAG: 8.13 z-score
TCATATTGCTTTCTCTTACTGTGCTAG: 1.91 z-score
TTAAGTTCCGGTTTCGGTTAGTGCTAG: 10.2 z-score
TTAGGGATCGACTTTCGGTTAGTGCTA: 3.24 z-score
TTAGAGTTCAGTTCCGATTAGTGCTAG: 1.14 z-score
AATTGTCTCTGTCCCTGTTTGTGCTAG: 1.94 z-score
TTTGAACTGGGGACTGGATTAGTGCTA: 0.0762 z-score
GACTATTTCAGACTGGAGACGTGCTAG: -0.111 z-score
GACGAACTGGGGTATCCAGACGTGCTA: -0.247 z-score
TCAGCTTCCTCTTTCACACTGTGCTAG: 1.62 z-score

Block 3
Target: Ras GTPase-activating protein-binding protein 1, C-terminal RGG region (G3BP1, Homo sapiens, UniProt Q13283)
Sequence of UniProt Q13283 (whole entry, looked up): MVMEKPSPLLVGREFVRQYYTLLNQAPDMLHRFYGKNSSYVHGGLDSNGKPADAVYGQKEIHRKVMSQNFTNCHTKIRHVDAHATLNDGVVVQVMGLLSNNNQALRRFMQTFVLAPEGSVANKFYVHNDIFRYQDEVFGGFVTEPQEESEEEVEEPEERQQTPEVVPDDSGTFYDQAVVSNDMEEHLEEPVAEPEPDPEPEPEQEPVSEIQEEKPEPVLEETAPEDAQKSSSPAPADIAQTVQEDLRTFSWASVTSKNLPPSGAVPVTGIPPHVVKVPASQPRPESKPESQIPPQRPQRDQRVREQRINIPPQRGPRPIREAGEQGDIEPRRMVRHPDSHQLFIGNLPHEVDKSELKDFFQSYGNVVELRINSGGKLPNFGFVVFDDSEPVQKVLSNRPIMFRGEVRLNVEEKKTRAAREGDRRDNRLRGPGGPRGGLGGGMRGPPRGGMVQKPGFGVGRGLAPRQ
Method: RNA Bind-n-Seq
Form: RNA
Medium: in vitro
Concentration: 1 µM
Notes: whole 134-nt RNA, ends assumed
Added: 150 mM KCl
Reference: input library
Reading: higher = stronger binding
Measurement: log2 enrichment
Shared flanks, not repeated: GGGAGUUCUACAGUCCGACGAUC … UGGAAUUCUCGGGUGUCAAGG
UCAAGUCCUGUGCUACACAUCGUAUGUACCGAAUCGGGGCCGGCCGGGGCCGGGGAAAGUAUUAUGUUACGCCGUUCGGAUCUGCACUUC: -2.02
UCCUGUGCUACACAUCGUAUGUACCGAAUCGGUUUUUUUGGGUUUUUUUGGUUUUUUUGGAAAGUAUUAUGUUACGCCGUUCGGAUCUGC: -0.466
ACCAUGCAGGUGGGCAUCUUUGGGAAGUGGGGCAAGGGGGGGAUAGGGAGGGGGGUAACACUUUGGGACCAGGUGGUCCCAGGUCGUUUC: 2.48
AAGUCCUGUGCUACACAUCGUAUGUACCGAAUCGGGGUUUGGGGUUUGGGGAGGGGAAAGUAUUAUGUUACGCCGUUCGGAUCUGCACUU: 3.41
UGCAGAAGCAUCUUCAGUUGGAGAGCCAUUGCCUCUUGCUGUGAAAUAUUUGGGAAUCUUCAGAAACCAUGAAGAAUAACCUGCUAAAGG: -1.68
AAGUCCUGUGCUACACAUCGUAUGUACCGAAUCGGUUUUUUUGGAAAAAAAGGAGGAAAGUAUUAUGUUACGCCGUUCGGAUCUGCACUU: -2.3
UCAAGUCCUGUGCUACACAUCGUAUGUACCGAAUCGGUUUGGAAAGGAAAAAGGAAAGUAUUAUGUUACGCCGUUCGGAUCUGCACUUCC: -1.27
CACAGACAACACGCACCCACACAGACACAGAGGGAAGGGGUUGGGAUGGGGACAGGGUGCACAGCAGGGCGGGGUAGGAUCCCAGCCCCU: -0.901
UAACUUUAGAGGAGGAUCUGAUGGCUAUGGCAGUGGACGUGGAUUUGGGGAUGGCUAUAAUGGGUAUGGAGGAGGACCUGGAGGUGGCAA: -1.41
GCAGGAAGUAAAAACAAAUGGAAAUGCUUCGGAUAGUGGCAGGGGUGGGGGUUGCUAAGCAAAGGGUGGGAUGGGAGUGGGUAAAGAGUU: 2.01

Block 4
Target: RNA binding protein fox-1 homolog 2, RRM domain, GST-SBP tag (RBFOX2, Homo sapiens, UniProt O43251-10, residues 100-194)
Method: RNA Bind-n-Seq
Form: RNA
Medium: in vitro
Concentration: 365 nM
Notes: natural RNA segment, single round, ends assumed
Reference: no-protein control
Reading: higher = stronger binding
Measurement: RBNS enrichment (R)
Shared flanks, not repeated: GGGAGUUCUACAGUCCGACGAUC … UGGAAUUCUCGGGUGCCAA
Construct (chain): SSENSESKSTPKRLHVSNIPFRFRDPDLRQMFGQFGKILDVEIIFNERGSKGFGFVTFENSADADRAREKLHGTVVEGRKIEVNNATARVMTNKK
UAACUAUAAUAUAUAUGAAUAUAAAUUUAGCUAAUGUUUGUGAGAGUGGGGCCUGCACACGUGUUCCUGUCAGAGGCAAGGCUCACAUUCCUUGCCAGCACCUCUUUCUC: 0.902
CACGUGUCACACUGUUUGGAGGGGGAAGGGCAUUGCCAGCCACUGUCUGCCGAGUCGUCUGUGUAAAAGCCUGUGCUUAGUCUUCUCUGGAAAGAACUGAGGCCAGACGA: 0.988
GAAAGUGCUAGAGUACAUGGUCCGUGUGUGGCCUAGCUCAUUCCAUGUCAGCAUUUGGUGUUACUCCUGUCCAAAUUCUGUUUGCAGACUUGUUUCAUGAUGAUGCUCUG: 0.367
GGUGUCUGUAGGUGGACCCGGUCUCCCACAGGUGACAUCAACCUGAGGGUGGCGUCUUUAGAGACAGGCACAUGGGCAGCCCUGUUCCCUUCGCCUCUACUGCGAGGCCU: 0.256
GUAUAUAAAAGGCUACAGUUUAAUAUCUGUAUUUUUAUAAAAGUAUGAUGAAGGGUUUGGGGUGUUUUUAUUUGUAGCAGAGGUAAGAAUAUGUAUUCAUAUAAUCUGCC: 0.519
GCCGAGAUGCAGGGCAAAGUUGCUGUGGCAUCUUUGUUCCUCUCCCUGGGUCUGCACUCCCUCCCCUGUGCCUGACUAAGCCUUGUUCAUUGUUCUUUCAUCCUUACAAG: 0.783
GGUUAAACCCACAGCUUUUGUGUGUGGUUUGUUUUGUUGUGUUUUCUUUCUCUAUGUUCCAAAACCAUUCCAUUUCAAAGCACUUUUGGUCAGCUAGCUGGAGGCAGUGU: 0.348
UGAGUGAUUCCCCUCUCUCUGCUAUGCUGGAGACGGUUCCAGCCUGGAAAGCGGCCAAGUUCAUCUUCUCACUGUGAGUGGAAGCUGGAUCGGGCCCCCGUAGUCCUGGC: 0.255
ACUGGGCCCCAACACUGGCUUUGAGAUUUAGAGUCAAAGGGUAGAGUGAACAGGAAAGGGUCACGUGGUCCCAUGUUGCAACAGCCCCAACAUCACGCAUGUCAUUCACU: 5.25
CUUCUCAAUUUCUCAUAGAUUUUACCUUAAACUAAUUAAGGCCAUUCUCUUGAUAAAUUUGUACAUCAGACCGGGUCACCAGCUAUGAUGCAGAACGCCAGAUUUUUGAA: 0.327
AAUUUCACUGGUUCGUUCAAUCCAGCUUGUUGCUAAUAUUAGUUACCCUUGUUUUAAUGACAGAGAGUGGCUGGAAUCUGUAGCUAGGGGAGGGGCAACACUGUUAGAUG: 0.406
GGGGAUCCCUGAGAAGAGUGUCCUUUAGAAAGCUAGGCAGAUGUGGAUUGCUGCUAGGAGAGUGACCCUUUAGUGGCAUAGUGACCUCAGACAAGAACUCCCUGGUUGAA: 1.93

For quick reference, copied from above (block 2):
GACGGACTGATTATCCTGACGTGCTAG: -0.563 z-score
TCAAGCCTCCATTTTTAACTGTGCTAG: -0.136 z-score
GACGGACTGGGAGTGGGGACGTGCTAG: -0.457 z-score
TCAGTTTTCTGGTTCCCACTGTGCTAG: 1.17 z-score
GACGATATCAGACTGGATACGTGCTAG: -0.325 z-score
TCAAGAAAGTGAAATACCACTGTGCTA: -0.494 z-score
TTAGATTCCAGTTTCGATGAGTGCTAG: 7.14 z-score
TTAAGACTGGGGACTGGGTTAGTGCTA: -0.17 z-score
